Measurements pooled from the literature.
A part holds a random share of what one study measured.

Series 1
Target: Histone acetyltransferase KAT6A, both winged helices, GST fusion (KAT6A, Homo sapiens, UniProt Q92794, residues 1-181)
Technique: protein binding microarray
Molecule type: double-stranded DNA, one strand shown
Medium: in vitro
Concentration: not given
Setting: 8-mer, flanks averaged, mean of 2 arrays, mostly near background
Baseline: not given
Direction: higher = stronger binding
Endpoint: E-score
Residues (chain): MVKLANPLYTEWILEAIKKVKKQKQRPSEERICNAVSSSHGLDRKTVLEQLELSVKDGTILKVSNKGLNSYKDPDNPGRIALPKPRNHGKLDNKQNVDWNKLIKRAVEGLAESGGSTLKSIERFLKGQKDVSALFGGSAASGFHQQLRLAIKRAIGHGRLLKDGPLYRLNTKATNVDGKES
Oligonucleotide = CACTTGTC; value = -0.12
Oligonucleotide = ACTCACTA; value = -0.184
Oligonucleotide = ACCATCTG; value = -0.0632
Oligonucleotide = CAGATAAC; value = -0.0381
Oligonucleotide = GTACCCAC; value = 0.0215
Oligonucleotide = AGGACAAA; value = -0.0729
Oligonucleotide = CGTTTTGA; value = 0.0346
Oligonucleotide = CCATACTA; value = -0.146
Oligonucleotide = CATCCTCA; value = -0.09
Oligonucleotide = CTCGGAAA; value = 0.0846
Oligonucleotide = CCCCACGG; value = 0.189
Oligonucleotide = AATGCGAG; value = -0.159
Oligonucleotide = AATTAGGG; value = -0.196
Oligonucleotide = GTGGCTCA; value = 0.00511
Oligonucleotide = GGAAGTCC; value = -0.0128
Oligonucleotide = CGGCGAAA; value = 0.279
Oligonucleotide = AGCAAAGC; value = -0.0804
Oligonucleotide = GAGCAGTA; value = -0.207

Series 2
Target: RING finger protein unkempt homolog, zinc fingers 1-6, SBP tag (UNK, Homo sapiens, UniProt Q9C0B0, residues 30-357)
UniProt Q9C0B0, sequence (30-357, looked up): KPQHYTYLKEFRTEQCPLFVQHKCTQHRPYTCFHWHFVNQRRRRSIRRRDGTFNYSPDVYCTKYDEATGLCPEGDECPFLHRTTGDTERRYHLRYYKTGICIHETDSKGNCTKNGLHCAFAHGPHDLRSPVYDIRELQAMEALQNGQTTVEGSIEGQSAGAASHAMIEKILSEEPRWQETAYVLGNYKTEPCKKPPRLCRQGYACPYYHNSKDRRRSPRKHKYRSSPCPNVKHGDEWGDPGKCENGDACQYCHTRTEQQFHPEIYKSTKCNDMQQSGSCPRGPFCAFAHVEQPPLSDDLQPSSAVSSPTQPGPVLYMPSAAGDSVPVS
Technique: RNA Bind-n-Seq
Molecule type: RNA
Medium: in vitro
Concentration: 100 nM
Setting: RNA with constant flanks, vertebrate orthologous sites, ends assumed
Baseline: input RNA pool
Direction: higher = stronger binding
Endpoint: bound/input enrichment
Constant ends, left off below: GGGAGUUCUACAGUCCGACGAUC … CAACAGAGGAUUGAGCAUCA
Oligonucleotide = GAACUAAAGGAGUUAGCAUCUUUAUUUUUAUAUCAAAGAAAAAGGUUAUUUUGAAAUUAUUAGGAUUUUUACAUAACUCUGAAAUCUGUUGCUUUCGUAAACAAAUAGUUUGCUCUGAGG; value = 0.348 ratio
Oligonucleotide = AGUAUCCCAGUUGUACCAUGUUGAGUUGGCAUUGUACAGAAAUUAACAGCCAUAUUGGUCUAGAAACGUUAAAUUUAAUUUUUUCCCAUUUGUACAGGGGUAACGCACUGUAUUAAAUAU; value = 1.13 ratio
Oligonucleotide = CUCUAUGGGCCUCGCAGAGUUGAAGUAAUGGAAGAGGAAAGUGAACAGUAAUCUUCAUUUUAGUAUUUAUGUUUAGGUGUGAAAUAAAUGUUACUUGUUGAUCAUUUCUAUAAUUCAGAG; value = 0.912 ratio
Oligonucleotide = CUGGCUGUGUUACUGUGGCAUUUGAAAUAUUCACAGUAUUCAAUUUUCCCAAAAUGAUUCUAGUAAUUGCCUAGAAAUAUCUUUCUCUUACCUGUUAUUUAUCAGUGUUCCCAGUAUUUU; value = 0.448 ratio
Oligonucleotide = CAGCUAAAGGAGUUAGCAUCUUUAUUUUUGUAUCAAAGAUAAAGGUUAUUUUGAAAUUAUUAGGAUUUUUACACAAGUCUUCGAAACAAAUUGUUUGCUCCUGAGGACCUCCCCGCCCCA; value = 0.933 ratio
Oligonucleotide = GCUGUGAUCCCUUUAACAUACACAGAAAACUGUCCAAGAAAAACCUGCGAGCAGUUGACUUAGAUGAUGCAGCUUUUCUGAGUGCCAAGUUUGGAAGACAGUUUGUUCCUGGUUGGAAGC; value = 0.361 ratio
Oligonucleotide = GCUGCCGCAGCCCUGGCGCCGGCCGUUCCAGUUCUUAGAGUGUUCUCUUGCUUGUAGUCUCUAGGGGUCAGGUGGGUUGUGCACACCUCUGAGGCAGGAGCUUAGGGGCCCAUCUCAUAU; value = 0.621 ratio
Oligonucleotide = GAUAUUGAAUAGUAUUAAACAUUUUCGUCUUCCUUUAUCUUUUAUCCCCUACCCAAUAUUUAGUCUACUUUUUAAAAUUUCAGACUUCACUGCUCUUUGAACUGAUAGUUCCAGUUUUCA; value = 1.17 ratio
Oligonucleotide = AGAUUUGGACCUAGGAGCCAAACCAGGGAGCUAGCAGAAGUAAAGCAGAGUGUAAAAGUAUAGCCAUAUGCAGCUGCCCAGCAACGGUACUACCACUAGCAGCUGUGUUAAAGUAUUUAU; value = 0.65 ratio
Oligonucleotide = AACCUCCUGAACAUCUAGCUUUCAAAUUUUGGCUGUUUUAGAUACUGUUUUUAUUUUCUUUAGAGUUUUCCUGUUUGCCAUCUUCUUUUCCCCUGUUCUCAAGGGUUGACUCACAGAUUU; value = 4.7 ratio
Oligonucleotide = CUCGGGGAUACCGUGGGGCGCUGCUGACUGCUUCGCGUCGUUUGAUUUGUGACCUUGACAUAAUAGAUAGGCUUGUGGUUUGUUUGUUUUUUUAAUUUAAAGAUAUUAAAACUUAAUUCA; value = 0.538 ratio

Series 3
Target: RNA binding protein fox-1 homolog 2, RRM domain, GST-SBP tag (RBFOX2, Homo sapiens, UniProt O43251-10, residues 100-194)
Technique: RNA Bind-n-Seq
Molecule type: RNA
Medium: in vitro
Concentration: 365 nM
Setting: natural RNA segment, single round, ends assumed
Baseline: no-protein control
Direction: higher = stronger binding
Endpoint: RBNS enrichment (R)
Constant ends, left off below: GGGAGUUCUACAGUCCGACGAUC … UGGAAUUCUCGGGUGCCAA
Construct (chain): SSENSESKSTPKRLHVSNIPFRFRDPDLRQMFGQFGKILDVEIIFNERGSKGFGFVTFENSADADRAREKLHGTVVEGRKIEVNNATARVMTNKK
Oligonucleotide = AAGACCAGGCUGACCUUGAACUUACAGAGAUCCACCUCCCUGCCUCCCGAGUGCUGGAGCUAAUGGGGAUCACCACCACAGCCCAGCUCAAGUUCUUUCUCUUGGUUAGU; value = 0.217
Oligonucleotide = GAAUUUCUCAUGUAUACUAUGUUUAAUGGUAGGGUCUCACUGUUAAGGCACAAAUUAUUUCAAAGGAGUUGCUCUAAAAACAGAUUAUUUCCCGGAAAAAAAAAAAUGCA; value = 2.37
Oligonucleotide = AGUAUGCCUGUGCCAUCAGAGAAGAGAUCCCACCCCAGUAGGAAGGUAUGGGGCAGUCCAGUUUAUAACUUUGCAACCAAACCCAAGCCUGCUCUUUUUGAAGCAGCUGA; value = 0.455
Oligonucleotide = GUCCCUUUCCCUUUAUAUUUGAGAUGAGGUCUAGAUAUGUAGUCCUGCCUGGCCUCCAAUUUGUAAUCCUCCUGCCUCAGCCUUGAGUGCUGGAAUUGAGUGUGUGCCAC; value = 0.411
Oligonucleotide = CAAUACUUAAAAGUAUAUAGUUGGUGGUUAAGCUUAUGAGAUGAGUGAAUGGAAAACCUGGGAGAGGAAAGGGUGGACAGAAUUCAAGUCUGCUUCUGUCCCAGCCACAU; value = 1.01
Oligonucleotide = CCUGUCACUUGCACAGAGGCCAGUCCCACUAAGGUGACCAGAGUGGGCUCCAAGCACAAACUGCCAUUGGCUAUAGAUGGGACUGUGUCCCCCCAAAAUUCAUGUGUUGG; value = 0.659
Oligonucleotide = UGCUGGAAAUAAGGUAUAAUUUGUAUUUUGCAGACAAUUCAGUAAAGUUACUGGCUUUCUUAGUGAUACAGUGUCUGUCGUGCGUUUUUUUUUUUUAAUUAAUGUUUUGC; value = 0.695
Oligonucleotide = CUUGUGAUAUCAGUGUAUGCGUACCUGUGUCGCUUUAUUUGCAGUGUGUUGAGGGACUGGUGUAUCCACUGGAAUAGUUGGUACUCUUGGAUGUGUUUUCUCACCAAGAU; value = 0.529
Oligonucleotide = CUUCAUUGGCCUAGAUUUUGCGGCAGAUUAGACCUUUUGAAGGUUCUCCACCAUUUUCGUACGUCUCCUGUCCUGGUUUUUUCUUCUGCACUCUUGGAGAGAUUUAGAUG; value = 2.78
Oligonucleotide = UUUAAGCUAAAAUGUUACUCCCUGUUUUAGUUUCUGAACUCUGACAGAUUGACAGGGACUUUGCUGGUGUAGUCUUUUUAUAGGUUUUAUAAACCACUUGAGCCUAUAUC; value = 0.602
Oligonucleotide = AACUCUUGAGACUGCAUUGUCUUAUAUUCUGUAAGUUCAGAAAUGUAAGUGAAAAAGCCGUGACCAACCGUAGUAAAGUAGAUGACAGCUGUUGUAUAUCAGACUUAAUU; value = 0.337
Oligonucleotide = GGUUUUGUUUUGUUUUGUUUUGUUUUUUGUUUAAGUCGAGAUAUAAAAACUGAACACGAUAACACUUACUCUUAAAUCAAGCAUCAACACUUUUUCCCUGUUAGAAUUCU; value = 0.636

Series 4
Target: Interferon regulatory factor 5, full length, phosphomimetic (IRF5, Homo sapiens, UniProt Q13568-2, residues 1-514, K96S/S451D/S453D/S456D/S462D)
Technique: protein-binding microarray
Molecule type: double-stranded DNA, one strand shown
Medium: in vitro
Concentration: 250 nM
Setting: 60-bp whole probe
Together with: salmon DNA 0.4 mg/ml
Baseline: random background probes
Direction: higher = stronger binding
Endpoint: log fluorescence
Constant ends, left off below: GCCTAGCAC … GTCTTGATTCGCTTGACGCTGCTG
Oligonucleotide = TTAGATTCCTGTTTCGATTAGTGCTAG; value = 8.29 z-score
Oligonucleotide = GTTGCTCTCCGGGGTCTGTGAGTGCTA; value = -0.255 z-score
Oligonucleotide = GACGGTTTCCTTCTCTTGACGTGCTAG; value = 1.11 z-score
Oligonucleotide = TGGGGGGATCAGGGAAACAGGTGCTAG; value = 1.69 z-score
Oligonucleotide = TCACATATTTATCTGCAACTGTGCTAG; value = 0.646 z-score
Oligonucleotide = TTAGACATCGGGTTTCGATTAGTGCTA; value = 7.08 z-score
Oligonucleotide = GACGGACTGGGATTGGGGACGTGCTAG; value = -0.479 z-score
Oligonucleotide = GACGATATCAGACTGGAGTCGTGCTAG; value = 0.427 z-score
Oligonucleotide = ATAGGACTGCTTATCCTTTAGTGCTAG; value = 0.102 z-score
Oligonucleotide = CAATACCTTATGAATGTGTTGTGCTAG; value = 0.325 z-score
Oligonucleotide = GACGGTATCGACTACCGGGACGTGCTA; value = 2.58 z-score
Oligonucleotide = GACGGTCTCGGTAGCGGGACGTGCTAG; value = -0.0366 z-score
Oligonucleotide = GCCGATATCGGGTTTCGAGACGTGCTA; value = 4.5 z-score
Oligonucleotide = GACGGTCTCCTACTCCTGACGTGCTAG; value = -0.0418 z-score
Oligonucleotide = TTAGATTTCAGAATCGATTAGTGCTAG; value = 1.52 z-score
Oligonucleotide = TTAGGGCTGGACTTTCGGTTAGTGCTA; value = 8.78 z-score
Oligonucleotide = TGAGGACTGCTTCTCCTTTAGTGCTAG; value = -0.542 z-score
Oligonucleotide = TCATTTTGTGTTTTCATACTGTGCTAG; value = 1.45 z-score
Oligonucleotide = TAAGAACTGAGTATCGATTAGTGCTAG; value = 7.1 z-score
Oligonucleotide = TTAGGTATCGGGTTTCGGTTTGTGCTA; value = 8.51 z-score
Oligonucleotide = GACGGAATGGGGTTTCGGGACGTGCTA; value = 1.56 z-score
Oligonucleotide = TCATTTTTCCCTCTGGAACTGTGCTAG; value = 0.911 z-score
Oligonucleotide = TTAGATTTCGGCACTGGATTAGTGCTA; value = 3.01 z-score

A few entries again (series 3):
Oligonucleotide = AGUAUGCCUGUGCCAUCAGAGAAGAGAUCCCACCCCAGUAGGAAGGUAUGGGGCAGUCCAGUUUAUAACUUUGCAACCAAACCCAAGCCUGCUCUUUUUGAAGCAGCUGA; value = 0.455
Oligonucleotide = GUCCCUUUCCCUUUAUAUUUGAGAUGAGGUCUAGAUAUGUAGUCCUGCCUGGCCUCCAAUUUGUAAUCCUCCUGCCUCAGCCUUGAGUGCUGGAAUUGAGUGUGUGCCAC; value = 0.411
Oligonucleotide = CAAUACUUAAAAGUAUAUAGUUGGUGGUUAAGCUUAUGAGAUGAGUGAAUGGAAAACCUGGGAGAGGAAAGGGUGGACAGAAUUCAAGUCUGCUUCUGUCCCAGCCACAU; value = 1.01
Oligonucleotide = CCUGUCACUUGCACAGAGGCCAGUCCCACUAAGGUGACCAGAGUGGGCUCCAAGCACAAACUGCCAUUGGCUAUAGAUGGGACUGUGUCCCCCCAAAAUUCAUGUGUUGG; value = 0.659
Oligonucleotide = UGCUGGAAAUAAGGUAUAAUUUGUAUUUUGCAGACAAUUCAGUAAAGUUACUGGCUUUCUUAGUGAUACAGUGUCUGUCGUGCGUUUUUUUUUUUUAAUUAAUGUUUUGC; value = 0.695
Oligonucleotide = CUUGUGAUAUCAGUGUAUGCGUACCUGUGUCGCUUUAUUUGCAGUGUGUUGAGGGACUGGUGUAUCCACUGGAAUAGUUGGUACUCUUGGAUGUGUUUUCUCACCAAGAU; value = 0.529
Oligonucleotide = CUUCAUUGGCCUAGAUUUUGCGGCAGAUUAGACCUUUUGAAGGUUCUCCACCAUUUUCGUACGUCUCCUGUCCUGGUUUUUUCUUCUGCACUCUUGGAGAGAUUUAGAUG; value = 2.78
Oligonucleotide = UUUAAGCUAAAAUGUUACUCCCUGUUUUAGUUUCUGAACUCUGACAGAUUGACAGGGACUUUGCUGGUGUAGUCUUUUUAUAGGUUUUAUAAACCACUUGAGCCUAUAUC; value = 0.602
Oligonucleotide = AACUCUUGAGACUGCAUUGUCUUAUAUUCUGUAAGUUCAGAAAUGUAAGUGAAAAAGCCGUGACCAACCGUAGUAAAGUAGAUGACAGCUGUUGUAUAUCAGACUUAAUU; value = 0.337
